Results gathered from unrelated publications.
Compare with care: the assays were run in different laboratories.
Matrix: plasma

| SMILES | system | conditions | endpoint | value |
| --- | --- | --- | --- | --- |
| FC(F)(F)c1ccc(CNc2ccc(Cc3c[nH]c4ncc(Cl)cc34)cn2)cn1 | human | oral, 600 mg, single dose | AUC(0-inf) | 74100 ng·h/mL |
| O=C(COc1ccc(Cl)cc1)NC12CC(c3nnc([C@H]4C[C@@H](OC(F)(F)F)C4)o3)(C1)C2 | human | oral, 15 mg, single dose, fasted, healthy volunteers | AUC | 14.5 µM·h |
| CC(C)=CCC/C(C)=C/CC/C(C)=C/CC[C@@](C)(O)CCC1=C(C)C(=O)C(C)=C(C)C1=O | human | oral, 400 mg, single dose, healthy volunteers | AUC(0-t) | 3240 ng·h/mL |
| COc1ccc([C@@H](O)c2cc(-c3ncnc4cc(N5CCOCC5)ccc34)c(F)cc2Cl)nn1 | human | oral, 300 mg, multiple doses, twice daily, patients | AUC(0-t) | 18300 ng·h/mL |
| CC(=O)N(C)[C@H]1CCN(C(=O)c2cnc3c(c2)C[C@](C)(c2ccc(F)cc2)N3)C1 | male human | oral, 60 mg, multiple doses, once daily | AUC(0-inf) | 8.01 µM·h |
| CNC(=O)n1ccc2cc(Oc3ccnc(NC(=O)c4ccc(C5CCN(CCO)CC5)cc4)c3)c(OCCOC)cc21 | human | oral, 35 mg, single dose, fed, healthy volunteers | AUC(0-inf) | 100 ng·h/mL |
| CCc1nc2c(C)cc(N3CCN(CC(=O)N4CC(O)C4)CC3)cn2c1N(C)c1nc(-c2ccc(F)cc2)c(C#N)s1 | human | oral, 600 mg, fed, healthy volunteers | AUC(0-inf) | 36700 ng·h/mL |
| NC(=S)NN=Cc1ncccc1N | human | oral, 100 mg | AUC(0-inf) | 1030 ng·h/mL |
| CC(C)n1c(Nc2cccnc2)nc2cnc(Nc3ccc(N4CCN(C)CC4)cc3)nc21 | male human | oral, 100 mg, single dose, healthy volunteers | AUC(0-inf) | 892 ng·h/mL |
| COc1ccc([C@@H]2CN(C(=O)[C@@H](O)CO)C[C@@]2(C)[C@@H](C)O)cc1OC1CN(c2ccc(C)cn2)C1 | human | oral, 20 mg, single dose, healthy volunteers | AUC(0-t) | 4140 ng·h/mL |
| COc1ccc2c(c1)CN(C(=O)CCN1CCC(Cc3ccccc3)CC1)CC[S@@+]2[O-] | male human | intravenous, 0.15 mg/kg, healthy volunteers | AUC(0-inf) | 723 ng·h/mL |

Repeated from above:
| SMILES | system | conditions | endpoint | value |
| --- | --- | --- | --- | --- |
| NC(=S)NN=Cc1ncccc1N | human | oral, 100 mg | AUC(0-inf) | 1030 ng·h/mL |
